Assay results gathered from unrelated publications.
± gives the spread as reported.
CNR1: Cannabinoid receptor 1 (CNR1, Homo sapiens, UniProt P21554)
UniProt P21554, sequence (whole entry, looked up): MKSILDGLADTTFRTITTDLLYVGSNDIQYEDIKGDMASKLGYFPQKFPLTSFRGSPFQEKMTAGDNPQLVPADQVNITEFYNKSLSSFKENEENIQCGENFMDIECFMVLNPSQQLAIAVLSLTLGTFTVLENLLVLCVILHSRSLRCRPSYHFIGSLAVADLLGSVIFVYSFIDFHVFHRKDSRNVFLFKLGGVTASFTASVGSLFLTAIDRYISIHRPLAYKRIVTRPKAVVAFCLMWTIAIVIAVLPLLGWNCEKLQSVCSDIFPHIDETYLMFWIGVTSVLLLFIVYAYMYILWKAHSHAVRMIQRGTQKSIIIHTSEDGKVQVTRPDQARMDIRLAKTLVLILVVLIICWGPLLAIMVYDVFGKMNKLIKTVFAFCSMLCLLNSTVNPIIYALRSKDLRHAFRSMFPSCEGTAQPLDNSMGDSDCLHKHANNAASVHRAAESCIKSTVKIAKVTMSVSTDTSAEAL
Gabrg2/Gabra3 with β3 subunit: Gabrg2/Gabra3, with β3 subunit (Rattus norvegicus, UniProt P18508+P20236)
UniProt P18508, sequence (whole entry, looked up): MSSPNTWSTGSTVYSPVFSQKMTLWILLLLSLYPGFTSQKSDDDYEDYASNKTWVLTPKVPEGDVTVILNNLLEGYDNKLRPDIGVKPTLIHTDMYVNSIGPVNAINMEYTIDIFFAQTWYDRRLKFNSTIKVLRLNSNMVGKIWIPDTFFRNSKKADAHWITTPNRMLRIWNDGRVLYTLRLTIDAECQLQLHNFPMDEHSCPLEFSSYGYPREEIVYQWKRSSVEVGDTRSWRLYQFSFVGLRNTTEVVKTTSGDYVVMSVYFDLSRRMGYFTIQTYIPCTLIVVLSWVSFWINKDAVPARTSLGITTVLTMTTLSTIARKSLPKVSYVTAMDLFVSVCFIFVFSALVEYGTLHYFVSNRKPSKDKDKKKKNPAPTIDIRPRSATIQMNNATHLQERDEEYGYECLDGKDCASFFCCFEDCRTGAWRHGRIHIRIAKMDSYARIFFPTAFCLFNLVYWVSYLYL
UniProt P20236, sequence (whole entry, looked up): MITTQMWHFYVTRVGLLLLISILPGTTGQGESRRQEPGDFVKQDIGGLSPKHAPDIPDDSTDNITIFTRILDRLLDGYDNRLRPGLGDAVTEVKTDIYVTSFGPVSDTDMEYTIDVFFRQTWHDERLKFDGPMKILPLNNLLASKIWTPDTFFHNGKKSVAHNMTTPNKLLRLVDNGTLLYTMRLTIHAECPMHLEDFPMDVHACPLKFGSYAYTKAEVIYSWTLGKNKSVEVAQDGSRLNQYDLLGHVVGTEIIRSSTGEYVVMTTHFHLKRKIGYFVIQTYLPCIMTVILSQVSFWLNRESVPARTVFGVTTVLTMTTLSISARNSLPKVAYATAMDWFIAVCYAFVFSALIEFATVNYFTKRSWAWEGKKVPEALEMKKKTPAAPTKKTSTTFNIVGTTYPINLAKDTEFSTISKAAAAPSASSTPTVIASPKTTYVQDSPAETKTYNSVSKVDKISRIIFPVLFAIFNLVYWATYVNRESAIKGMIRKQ
UniProt P62813, sequence (whole entry, looked up): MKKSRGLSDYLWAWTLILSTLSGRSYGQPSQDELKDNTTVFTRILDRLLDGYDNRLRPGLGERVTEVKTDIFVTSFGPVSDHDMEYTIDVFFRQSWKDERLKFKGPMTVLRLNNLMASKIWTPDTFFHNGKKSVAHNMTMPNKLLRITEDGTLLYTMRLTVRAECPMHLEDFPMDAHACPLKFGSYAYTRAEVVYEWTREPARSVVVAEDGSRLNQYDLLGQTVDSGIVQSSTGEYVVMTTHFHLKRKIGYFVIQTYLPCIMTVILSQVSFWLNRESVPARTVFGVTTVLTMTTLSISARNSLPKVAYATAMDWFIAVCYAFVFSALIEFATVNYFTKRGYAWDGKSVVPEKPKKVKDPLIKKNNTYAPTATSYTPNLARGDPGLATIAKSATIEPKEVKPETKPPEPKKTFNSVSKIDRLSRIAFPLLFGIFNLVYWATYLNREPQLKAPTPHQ
UniProt P08908, sequence (whole entry, looked up): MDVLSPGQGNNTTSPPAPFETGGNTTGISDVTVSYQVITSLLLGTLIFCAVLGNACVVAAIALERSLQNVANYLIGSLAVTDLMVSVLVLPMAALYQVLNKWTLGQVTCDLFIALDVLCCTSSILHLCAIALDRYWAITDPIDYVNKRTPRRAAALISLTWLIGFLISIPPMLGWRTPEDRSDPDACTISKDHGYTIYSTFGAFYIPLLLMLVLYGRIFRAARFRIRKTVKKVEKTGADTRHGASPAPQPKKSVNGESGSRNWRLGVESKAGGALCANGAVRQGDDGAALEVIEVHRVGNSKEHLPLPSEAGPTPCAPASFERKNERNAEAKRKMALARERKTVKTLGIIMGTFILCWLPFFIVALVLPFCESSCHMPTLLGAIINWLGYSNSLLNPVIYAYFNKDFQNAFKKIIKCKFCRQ
UniProt Q923Y8, sequence (whole entry, unmodified, looked up): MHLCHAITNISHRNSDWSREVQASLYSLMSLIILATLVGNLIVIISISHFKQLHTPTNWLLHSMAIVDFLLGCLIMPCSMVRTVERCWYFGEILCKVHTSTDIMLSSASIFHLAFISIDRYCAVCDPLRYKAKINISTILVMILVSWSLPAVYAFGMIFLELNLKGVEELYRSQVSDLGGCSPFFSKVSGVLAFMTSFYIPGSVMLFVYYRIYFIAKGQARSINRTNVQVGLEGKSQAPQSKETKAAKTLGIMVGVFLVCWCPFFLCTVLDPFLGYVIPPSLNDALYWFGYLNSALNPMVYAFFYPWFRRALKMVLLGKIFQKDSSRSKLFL
UniProt P28335, sequence (whole entry, looked up): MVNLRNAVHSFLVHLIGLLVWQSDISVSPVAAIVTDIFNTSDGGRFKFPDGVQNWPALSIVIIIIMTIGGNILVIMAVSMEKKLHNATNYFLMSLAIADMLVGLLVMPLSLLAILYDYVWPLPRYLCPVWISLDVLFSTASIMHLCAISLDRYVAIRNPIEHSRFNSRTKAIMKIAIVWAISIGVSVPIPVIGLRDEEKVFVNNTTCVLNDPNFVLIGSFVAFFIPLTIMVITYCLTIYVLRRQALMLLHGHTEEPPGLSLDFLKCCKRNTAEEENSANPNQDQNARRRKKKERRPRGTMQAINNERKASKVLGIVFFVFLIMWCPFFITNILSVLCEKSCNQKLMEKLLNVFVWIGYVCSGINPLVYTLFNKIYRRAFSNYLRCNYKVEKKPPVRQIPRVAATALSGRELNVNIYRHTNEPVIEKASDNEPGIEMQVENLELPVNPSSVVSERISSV

The Emax of `COC(=O)[C@@H](NC(=O)c1cn(CCCCCF)c2ccccc12)C(C)(C)C` is reported as 108 ± 4.3% (CNR1; GIRK channel response, agonist; AtT20 expressing CB1; reference: WIN 55212-2 10 µM).
`CC(C)(NC(=O)c1nn(Cc2ccc(F)cc2)c2ccccc12)C(=O)Nc1cccc(C(N)=O)c1` has an Emax of 112 ± 2% (CNR1; calcium mobilization, agonist; CHO-K1 expressing Gαq16; reference: CP55,940 maximum).
The Emax of `CN1CCN(C(=O)OC2c3nccnc3C(=O)N2c2ccc(Cl)cn2)CC1` (stereo not drawn) is reported as 559 ± 30% (Gabrg2/Gabra3 with β3 subunit; GABA-induced chloride current, two-electrode voltage clamp; Xenopus oocytes; together with: GABA at EC3).
`CC(C)[C@H](NC(=O)c1nn(Cc2ccc(F)cc2)c2ccccc12)C(N)=O` has an Emax of 89 ± 2.9% (CNR1; GIRK channel response, agonist; AtT20 expressing CB1; reference: WIN 55212-2 10 µM).
`NCCc1ccc(Oc2ccc(O)cc2)c(I)c1` has an Emax of 100% (Taar1 (Mus musculus, UniProt Q923Y8, Y153F); cAMP accumulation, agonist, cell-based; TM4 mutant; reference: 1).
The Emax of `NC(=O)[C@@H](NC(=O)c1nn(Cc2ccc(F)cc2)c2ccccc12)c1ccccc1` is reported as 104 ± 3% (CNR1; calcium mobilization, agonist; CHO-K1 expressing Gαq16; reference: CP55,940 maximum).
For `CCCCCn1cc(C(=O)c2cccc3ccccc23)c2ccccc21`, the Emax was 55.8 ± 6.1% (CNR1; GIRK channel response, agonist; AtT20 expressing CB1; reference: WIN 55212-2 10 µM).
For `O=C(NC1CCCCC1)c1nn(Cc2ccc(F)cc2)c2ccccc12`, the Emax was 111 ± 3% (CNR1; calcium mobilization, agonist; CHO-K1 expressing Gαq16; reference: CP55,940 maximum).
The Emax of `C[C@H]1CNCCc2ccc(Cl)cc21` is reported as 98% (HTR2C (Homo sapiens, UniProt P28335); calcium flux, agonist, FLIPR; HEK293 expressing receptor).
`O=C(NCc1ccc(F)cc1)c1nn(Cc2ccc(F)cc2)c2ccccc12` gave an Emax of 91 ± 4% (CNR1; calcium mobilization, agonist; CHO-K1 expressing Gαq16; reference: CP55,940 maximum).
The Emax of `CN1C(=O)CN=C(c2ccccc2)c2cc(Cl)ccc21` is reported as 324 ± 22% (Gabrg2/Gabra1, with β3 subunit (Rattus norvegicus, UniProt P18508+P62813); GABA-induced chloride current, two-electrode voltage clamp; Xenopus oocytes; together with: GABA at EC3).
`CC(C)[C@H](NC(=O)c1nn(Cc2ccc(F)cc2)c2ccccc12)C(=O)O` gave an Emax of 123 ± 7% (CNR1; calcium mobilization, agonist; CHO-K1 expressing Gαq16; reference: CP55,940 maximum).
With `Cc1ccc(C(=O)c2cn(CCCCCCl)c3ccccc23)c2ccccc12` the Emax was 74 ± 3.4% (CNR1; GIRK channel response, agonist; AtT20 expressing CB1; reference: WIN 55212-2 10 µM).
The Emax of `CN1C(=O)CN=C(c2ccccc2)c2cc(Cl)ccc21` is reported as 237% (Gabrg2/Gabra3 with β3 subunit; positive allosteric modulator, whole-cell patch clamp; HEK293; α3β3γ2 subunits, together with: GABA at EC10).
For `CN(C)CCc1c[nH]c2ccc(O)cc12`, the Emax was 95% (HTR1A (Homo sapiens, UniProt P08908); calcium signal, agonist).

Repeated from above:
`NCCc1ccc(Oc2ccc(O)cc2)c(I)c1` has an Emax of 100% (Taar1 (Mus musculus, UniProt Q923Y8, Y153F); cAMP accumulation, agonist, cell-based; TM4 mutant; reference: 1).
